Assay results of several laboratories.
Compare with care: the assays were run in different laboratories. ± gives the spread as reported.
DRD2: D(2) dopamine receptor (DRD2, Homo sapiens, UniProt P14416)
ISOC2: Isochorismatase domain-containing protein 2 (ISOC2, Homo sapiens, UniProt Q96AB3)
ORM1 F1/S variants: Alpha-1-acid glycoprotein 1, F1/S variants (ORM1, Homo sapiens, UniProt P02763)

Compound	target	assay	system	setting	measurement	value
CCn1c(-c2nc3ccc(C(=O)N4CCCC(N)C4)cc3n2C)cc2ccccc21 (centres unmarked)	Adenosine receptor A2a (ADORA2A, Homo sapiens, UniProt P29274)	agonist, TR-FRET			EC50	> 31.6 µM
Cc1[nH]c(C)c(C(=O)N2CCC(F)(F)C2)c1C(=O)Nc1ccc(C(F)(F)F)c(Cl)c1	DRD2				IC50	> 100 µM
O=C(CCCCCCNC(=O)c1cnc(N(c2ccccc2)c2ccccc2)nc1)NO	ISOC2	inhibitor, competition pulldown	SW620 and MV4-11 lysate	1 h	Kd	0.00813 µM
Cc1[nH]c(C)c(S(=O)(=O)Nc2cc(Cl)cc(Cl)c2Cl)c1C(=O)N1CCC(F)(F)C1	DRD2				IC50	> 100 µM
CC(=O)c1c(C)c2cnc(Nc3ccc(N4CCN(CCCOc5ccc(CN6CCC(c7ccc8c(c7)CN(C7CCC(=O)NC7=O)C8=O)CC6)cc5)CC4)cn3)nc2n(C2CCCC2)c1=O (centres unmarked)	Cyclin-dependent kinase 6 (CDK6, Homo sapiens, UniProt Q00534)	protein degradation, degrader, immunoblot	Jurkat	4 h	DC50	0.002 µM
CCN(CC)S(=O)(=O)c1c(C)[nH]c(C)c1C(=O)Nc1ccc(C(F)(F)F)c(Cl)c1	DRD2				IC50	> 100 µM
O=C(COP(=O)(O)O)[C@@H](O)[C@H](O)[C@H](O)COP(=O)(O)O	Pyruvate kinase PKM (PKM, Homo sapiens, UniProt P14618)	enzyme activity, activator	MGC-803 cell lysate	together with: 0.2 mM PEP, 2 mM ADP	AC50	0.0439 ± 0.0189 µM
CC[C@H](CC[C@@H](C)[C@H]1CC[C@H]2[C@@H]3CCC4=CC(=O)CC[C@]4(C)[C@H]3CC[C@]12C)C(C)C	CYP125 ancestral reconstruction	UV-Vis difference spectra		Michaelis-Menten fit	Kd	1.1 ± 0.3 µM
CC[C@H]1OC(=O)[C@H](C)[C@@H](O[C@H]2C[C@@](C)(OC)[C@@H](O)[C@H](C)O2)[C@H](C)[C@@H](O[C@@H]2O[C@H](C)C[C@H](N(C)C)[C@H]2O)[C@](C)(O)C[C@@H](C)C(=O)[C@H](C)[C@@H](O)[C@]1(C)O	ORM1 F1/S variants	competitive inhibitor, ultrafiltration		15 min, 37 °C, together with: [3H]tamsulosin	Ki	3.93 µM
CN1CCN(c2ccc(Nc3ncc4cc(C#N)c(=O)n(C5CCCC5)c4n3)cc2)CC1	Tyrosine-protein kinase JAK1 (JAK1, Homo sapiens, UniProt P23458)				IC50	7.16 µM
CCCCOc1ccc(CC(=O)NO)cc1	ISOC2	inhibitor, competition pulldown	SW620 and MV4-11 lysate	1 h	Kd	> 30.2 µM
C=C1CC[C@H](O)C/C1=C/C=C1\CCC[C@]2(C)[C@@H]([C@H](C)CCCC(C)C)CC[C@@H]12	CYP125 ancestral reconstruction	UV-Vis difference spectra		Morrison fit, fitted enzyme	Kd	1.2 ± 0.8 µM
Cc1[nH]c(C)c(S(=O)(=O)Nc2ccc(C(F)(F)F)c(Cl)c2)c1C(=O)NCC(F)F	DRD2				IC50	> 100 µM
Nc1cc(F)ccc1NC(=O)c1ccc(CNC(=O)/C=C/c2cccnc2)cc1	ISOC2	inhibitor, competition pulldown	SW620 and MV4-11 lysate	1 h	Kd	> 30.2 µM
Nc1ncnc2c1ncn2[C@@H]1O[C@H](COP(=O)(O)OP(=O)(O)O)[C@@H](O)[C@H]1O	GUK1 (Homo sapiens, UniProt Q16774)	binding, ITC		together with: ATPγS	Kd	11 ± 2 µM
Clc1ccc(COC(Cn2ccnc2)c2ccc(Cl)cc2Cl)c(Cl)c1 (centres unmarked)	ORM1 F1/S variants	competitive inhibitor, ultrafiltration		15 min, 37 °C, together with: [3H]tamsulosin	Ki	9.95 µM
CC(=O)c1ccc(NS(=O)(=O)c2c(C)[nH]c(C)c2C(=O)N2CCC(F)(F)C2)cc1Cl	DRD2				IC50	> 100 µM
CCCCCCCCCCCCCCCCCCc1ccc(O)cc1	Albumin (ALB, Homo sapiens, UniProt P02768)	modified Stern–Volmer	PBS	37 °C	Kb	19300 µM
CN1CCc2c(c3ccccc3n2Cc2ccc(C(=O)NO)cc2)C1	ISOC2	inhibitor, competition pulldown	SW620 and MV4-11 lysate	1 h	Kd	> 30.2 µM
Cc1[nH]c(C)c(S(=O)(=O)Nc2ccc(C(C)(C)O)c(Cl)c2)c1C(=O)N1CCC(F)(F)C1	DRD2				IC50	> 100 µM

A few entries again:
Compound	target	assay	system	setting	measurement	value
Nc1ncnc2c1ncn2[C@@H]1O[C@H](COP(=O)(O)OP(=O)(O)O)[C@@H](O)[C@H]1O	GUK1 (Homo sapiens, UniProt Q16774)	binding, ITC		together with: ATPγS	Kd	11 ± 2 µM
Clc1ccc(COC(Cn2ccnc2)c2ccc(Cl)cc2Cl)c(Cl)c1 (centres unmarked)	ORM1 F1/S variants	competitive inhibitor, ultrafiltration		15 min, 37 °C, together with: [3H]tamsulosin	Ki	9.95 µM
CC(=O)c1ccc(NS(=O)(=O)c2c(C)[nH]c(C)c2C(=O)N2CCC(F)(F)C2)cc1Cl	DRD2				IC50	> 100 µM
